Published values collected from several papers.
Parts stem from different laboratories: compare values within a part only.

Study 1
Target: Histone acetyltransferase KAT6A, winged helix 2, GST fusion (KAT6A, Homo sapiens, UniProt Q92794, residues 85-181)
Method: protein binding microarray
Form: double-stranded DNA, one strand shown
Sample: in vitro
Concentration: not given
Setting: 8-mer, flanks averaged, mean of 2 arrays, mostly near background
Baseline: not given
Direction: higher = stronger binding
Construct (chain): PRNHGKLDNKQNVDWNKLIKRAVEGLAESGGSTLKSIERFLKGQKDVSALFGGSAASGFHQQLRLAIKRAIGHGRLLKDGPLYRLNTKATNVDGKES
With `CACGGTGC` the E-score was 0.0908.
The E-score of `GATACCGC` is reported as 0.0323.
`CCTCGGGC` gave an E-score of 0.109.
`GCACTAGA` gave an E-score of -0.128.
`GAATCGTC` gave an E-score of -0.0601.
For `CGAACCAA`, the E-score was 0.0559.
`AATTAAAA` has an E-score of -0.0121.
The E-score of `AGAGACTC` is reported as -0.118.
With `CGCGCCTA` the E-score was 0.0801.
`AAATGTTG` has an E-score of -0.171.
`CTTTTCAC` has an E-score of -0.0593.
`GGGATTAA` gave an E-score of 0.0756.
For `CATATTAA`, the E-score was 0.122.
With `ATCTGTGA` the E-score was -0.0324.
With `AGTTCGTA` the E-score was -0.0507.
For `GCGAGGAA`, the E-score was 0.157.
`CGGAAGGC` gave an E-score of 0.076.

Study 2
Target: RNA binding protein fox-1 homolog 2, RRM domain, GST-SBP tag (RBFOX2, Homo sapiens, UniProt O43251-10, residues 100-194)
Method: RNA Bind-n-Seq
Form: RNA
Sample: in vitro
Concentration: 365 nM
Setting: natural RNA segment, single round, ends assumed
Baseline: no-protein control
Direction: higher = stronger binding
Residues (chain): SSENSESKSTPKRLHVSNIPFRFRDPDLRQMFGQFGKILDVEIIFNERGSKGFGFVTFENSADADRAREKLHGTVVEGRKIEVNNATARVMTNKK
For `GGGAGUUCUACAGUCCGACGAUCAGGAGUGAUAUUUGUGGAGGAGGAGCUGUACAGUUAUCACUGUGUGUGUUUUGUUAAUACAAGAGGCCGGGUUUGGGGCUUGUGUUUGUCAAUAAACUCUUUGGCGCUGGUGGAAUUCUCGGGUGCCAA`, “RBNS enrichment (R)” read 0.654.
`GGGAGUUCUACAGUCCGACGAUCAUAAGAAAUCUCACACUGAGAUAGAAUUGUGAUUUCAUAAUAACACUUGAAAAGUGCUGGAGUAACAAAAUAUCUCAGUUGGACCAUCCUUAACUUGAUUGAACUGUCUAUGGAAUUCUCGGGUGCCAA` — result for “RBNS enrichment (R)”: 0.273.
For `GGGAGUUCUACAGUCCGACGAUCGUAAGCCAUAAUGCUCCCAAAGUGCCUUGUUUUCUCUGAUACAAACAUAUUUAUAAGGACAUAUUCCUGUGGGUUCUUGGGUGUGUUUGCCACAUCAAGAUUUUAGGGAAUGGAAUUCUCGGGUGCCAA`, “RBNS enrichment (R)” read 0.653.
Under “RBNS enrichment (R)”, `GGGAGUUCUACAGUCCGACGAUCAAAAUAUGCUUCUACAUAUUUACCACCAUAGGCGUUUUGUUCAUAUGAGCCUGGUUUGUGCAAAAUUAAAUCAGAGGCUUCUACAACAUGGUUUAUUUAUGUUGUAGCAAUGGAAUUCUCGGGUGCCAA` is recorded as 0.588.
For `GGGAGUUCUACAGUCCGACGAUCCCUGCAGUUCAGGCCUGUUUCUGUCAGAGUCAGGAACAUCUCUGAAUUAUGGAACAUUGUCUGUACCUUCUGACUUUAUGUAAGCAGUCCAUUCCAUUGCUUGUUUCUCAUGGAAUUCUCGGGUGCCAA`, “RBNS enrichment (R)” read 1.94.
For `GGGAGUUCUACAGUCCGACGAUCGGCUGGCUUUUUCUACACCCUCUUUUGAGUGUAGUUUGGUAUUUUGUAAUUGAGAGCUCAUUUCAAAAGCAGAAAAAGACAACAAAUAUUAAAGCAAGGAAAAGUGUAACUGGAAUUCUCGGGUGCCAA`, “RBNS enrichment (R)” read 0.342.
Under “RBNS enrichment (R)”, `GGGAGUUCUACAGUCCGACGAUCUACGUCUUUGGAGGAACAGCUCCCUAGUGGCUUCCUCCGUCUGCAAUGUCCCUUGCACAGCCCACACAUGAACCAUCCUUCCCAUGAUGCCGCUCUUCUGUCAUCCCGCUUGGAAUUCUCGGGUGCCAA` is recorded as 0.565.
For `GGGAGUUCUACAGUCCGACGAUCGAGGACUUUUAGAUUUAGUGAAGAUGGUAGGGUGGAAAGACUUAAUUUCCUUGUUGAGAACAGGAAAGUGGCCAGUAGCCAGGCAAGUCAUAGAAUUGAUUACCCGCCGAUGGAAUUCUCGGGUGCCAA`, “RBNS enrichment (R)” read 1.12.
`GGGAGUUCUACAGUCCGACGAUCCCUGGUUUUGUACAUAUCUAACUCUGUUCUCUUUUGGUUGUUCAGAAACUGGAUUUUUUUUUUCUUAAGCAGUGCUUAAUUUGUGUUUUUUAAUUUUGAUUCAGAAGUAGUGGAAUUCUCGGGUGCCAA` — result for “RBNS enrichment (R)”: 0.879.
Under “RBNS enrichment (R)”, `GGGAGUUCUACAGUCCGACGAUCCCUUAAGACAGUAGAGAUGUCUCUCUUUUAUUUGAGUUUGUGACUGACUUUGCCUAUAUAUCUUUCUGGGGUUUUGUUUGUGUUUAAUUUUUAUUUUGCAUACUGAGGGUUGGAAUUCUCGGGUGCCAA` is recorded as 2.01.
For `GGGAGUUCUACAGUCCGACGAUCUACUGAUGGUACCAAAGAAUCAAAGACCAAGGAUGUCAAGACAAAUAUGAAUCUCAUUGAAAUAAAAAAUGCCUUAAAGAAGCAGAUAUACAAGGACAUAUAUAGAGCUCUGGAAUUCUCGGGUGCCAA`, “RBNS enrichment (R)” read 0.436.
For `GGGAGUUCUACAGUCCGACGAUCUGCUGCCUAACUUCCCUGUGUUCUAUUUGAGAGGCGCCUGUCUGGAUAAAGUUGUCUUGAAAUUUCACAGUGGUCCUGUGCUUUCUUUGUGCUUCAGGGGAAUCCUUUCUUGGAAUUCUCGGGUGCCAA`, “RBNS enrichment (R)” read 1.16.

Study 3
Target: PABPC1L2, full length, GST fusion (mouse, UniProt A0ABA7IW68)
Method: RNAcompete
Form: RNA
Sample: in vitro
Concentration: 20 nM
Setting: 7-mer, probes averaged, single round
Baseline: mean of 7-mers
Direction: higher = stronger binding
Target sequence (chain): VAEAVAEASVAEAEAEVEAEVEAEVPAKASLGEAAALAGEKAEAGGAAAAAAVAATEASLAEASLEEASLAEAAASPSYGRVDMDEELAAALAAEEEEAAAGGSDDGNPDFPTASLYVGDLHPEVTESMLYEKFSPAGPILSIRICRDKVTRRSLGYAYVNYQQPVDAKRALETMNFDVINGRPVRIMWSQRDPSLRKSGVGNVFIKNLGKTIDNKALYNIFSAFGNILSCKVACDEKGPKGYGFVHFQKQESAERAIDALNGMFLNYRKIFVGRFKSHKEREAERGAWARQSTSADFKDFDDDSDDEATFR
For `AGAUAUC`, the 7-mer Z-score was -0.289.
`ACACUCA` gave a 7-mer Z-score of 0.0315.
For `UAGAGCC`, the 7-mer Z-score was -0.148.
For `AAGUGGA`, the 7-mer Z-score was 0.43.
The 7-mer Z-score of `AGAAUGU` is reported as -0.184.
The 7-mer Z-score of `UCACUGC` is reported as -0.119.
`UCCACAA` gave a 7-mer Z-score of -0.0718.
`AAAUAGU` has a 7-mer Z-score of 1.56.
`AACACGG` has a 7-mer Z-score of 0.622.
With `CGGGAGC` the 7-mer Z-score was 0.00254.
`UGACAUU` has a 7-mer Z-score of -0.0953.
With `AGAUUUG` the 7-mer Z-score was -0.353.
`AGUUCCU` has a 7-mer Z-score of -0.188.
The 7-mer Z-score of `CCGACAG` is reported as -0.113.
The 7-mer Z-score of `CUGGUAU` is reported as -0.0192.
The 7-mer Z-score of `UUUAUCC` is reported as -0.282.
The 7-mer Z-score of `AGGGUUU` is reported as -0.148.
The 7-mer Z-score of `CCAACUU` is reported as -0.293.
For `AUGUGAG`, the 7-mer Z-score was -0.0482.
`UAUCCUC` gave a 7-mer Z-score of -0.383.
The 7-mer Z-score of `CGCAACU` is reported as -0.184.
For `UACGCCU`, the 7-mer Z-score was -0.393.
The 7-mer Z-score of `CCUGGUU` is reported as -0.478.
`CCCCCAU` gave a 7-mer Z-score of -0.432.
With `AUCAACG` the 7-mer Z-score was -0.217.

Study 4
Target: RING finger protein unkempt homolog, zinc fingers 1-6, GST-SBP tag (UNK, Homo sapiens, UniProt Q9C0B0, residues 30-357)
Method: RNA Bind-n-Seq
Form: RNA
Sample: in vitro
Concentration: not given
Setting: RNA with constant flanks, human and mouse sites, ends assumed
Baseline: input RNA pool
Direction: higher = stronger binding
Residues (chain): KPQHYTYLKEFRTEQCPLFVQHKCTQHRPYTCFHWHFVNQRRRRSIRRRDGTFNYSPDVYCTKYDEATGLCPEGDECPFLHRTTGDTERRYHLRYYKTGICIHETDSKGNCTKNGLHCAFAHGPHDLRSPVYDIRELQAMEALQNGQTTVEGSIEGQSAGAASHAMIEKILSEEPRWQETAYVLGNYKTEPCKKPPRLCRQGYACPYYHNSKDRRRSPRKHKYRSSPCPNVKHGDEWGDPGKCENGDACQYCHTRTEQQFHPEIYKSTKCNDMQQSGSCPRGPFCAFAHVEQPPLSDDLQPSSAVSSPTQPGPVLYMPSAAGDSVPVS
The bound/input enrichment of `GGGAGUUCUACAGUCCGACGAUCAUAACUACUCCUGCCAUGGCCGUCAGCCAUAUCAUGUUGGAAUCAUAUAAAAAGUAUAUUCUAGUGUCUUUGAUAUUACUUGGCAAAGUACAACAGCUGCCUAAAUACACCUCUCAAAUACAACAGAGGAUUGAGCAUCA` is reported as 0.301 ratio.
For `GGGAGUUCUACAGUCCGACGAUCUUGGGUCCCAAAGGAGAUGGUCAUUAUCCAUGGAGUUGUCCAGUGACUCAUACACGGGAAAAAAUUUAUGCCAUCUGUUCGGACUAUGCCUUUCUCAACCAGGCGACCUCAAUCUAUAAACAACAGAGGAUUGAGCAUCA`, the bound/input enrichment was 0.0869 ratio.
`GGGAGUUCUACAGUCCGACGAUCGCAGUAGCCAGAGGAUGUGCAUUACAGUGUGCAAUACUUUCCCCGGCAUUUAAAGUUAGAGAAUUUUCCGUCACAGAUGCAGUUCCUUUUCCAAUAUCUCUGAUCUGGAACCAUGAUUCACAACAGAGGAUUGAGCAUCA` has a bound/input enrichment of 0.362 ratio.
`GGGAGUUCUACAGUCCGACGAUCGUGAGAGGCGAGAAGGAGGCUCUAGACCUGCGAAAGGAAAAAGAAACCCUUGAGAGGAAACUUAGAGAUGCAAGUAAGGAAUUGGAGAAAAACACUAACAAAAUUAAGCAGCUGUCUCAGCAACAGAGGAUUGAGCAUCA` gave a bound/input enrichment of 0.658 ratio.
With `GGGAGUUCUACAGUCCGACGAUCAAGAAUCCUGGUGUGGGCAAUGGAGAUGAUGAAGCAGCUGAAUUGAUGCAGCAGGUCAAAGUACUGAAGCUUACUGUUGAAGACUUGGAGAAGGAGAGAGACUUCUACUUCGGAAAGCUACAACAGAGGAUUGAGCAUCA` the bound/input enrichment was 0.585 ratio.
`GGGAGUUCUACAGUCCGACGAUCAGUUGGCGCUUCAGCAGCUGAAUGCCGUUGCCUCACAUGGUUCAACACCACCUUAUACUUUAUUAAAUCAGGCUUUCUUGAAAAUAGCCAUGUCGAGACCCAGGUUUAAUCCUCGAGGAGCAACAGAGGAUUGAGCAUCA` gave a bound/input enrichment of 0.347 ratio.
The bound/input enrichment of `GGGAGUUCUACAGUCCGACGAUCAUCUCGUGCCUCUCCCCACGGGGGGUGGGGGACGCUGAAUGACCCUCAGCUGUUCCAAUCCAGUGGGUUUUUUUGAUUUGUUUGUUUUUGUUUUUUUUUUUUUAUUAAAGAAAUUACUGUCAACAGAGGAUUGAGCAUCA` is reported as 0.347 ratio.
With `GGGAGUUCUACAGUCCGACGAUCUUGAAAAACACAGAUAUCAAAGUUGUUGAUUUUGGAAGUGCAACAUAUGACGACGAACAUCAUAGUACUUUGGUGUCCACAAGGCACUACAGGGCUCCAGAGGUCAUUUUGGCUCUAGGUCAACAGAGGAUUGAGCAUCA` the bound/input enrichment was 0.226 ratio.
`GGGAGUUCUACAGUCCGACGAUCUCCACAGAAGCCUCAUCCCAAGAACAUCAACACAGAGCUCCCGACGCUGGGAUUGUAUCUAGUAUACCUUUACAAAGACUUUUUAAACCAAAGGACAUGGACUGUUGGGAAGUUCAGACUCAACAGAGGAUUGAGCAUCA` gave a bound/input enrichment of 0.776 ratio.
For `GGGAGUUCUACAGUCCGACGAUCACCAUGAAUGAUAUCGAUGCUUUUGAAUUUCAUGAAGCCUUCUCAGGCCAGAUUUUAGCUAACUUUAAAGCCAUGGAUUCUGAUUGGUUUGCACAAAACUACAUGGGUAGGAAAACCAAGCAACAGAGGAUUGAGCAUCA`, the bound/input enrichment was 0.639 ratio.
With `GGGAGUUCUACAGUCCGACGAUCGCGUAUGUUUCGCACUGCUCUUUUACUCUGAGGGUUUAAACAAUAUUUCUCCAGGGGUUUCCUCACUGAGAACCCAUGCAGUCUACUUAAUGCUGUGAAUCACAUUUUCCAAAUGUUUAACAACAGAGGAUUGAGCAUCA` the bound/input enrichment was 0.162 ratio.
